{"data": "Results pooled from the literature", "note": "Protocols differ between the studies behind these lines. “And” joins repeats or separate records; there may be more than shown. ± marks the error that the study gave."}
{"Compound": "CCC(CC)n1c(Cc2cccs2)nc2cc(C(=O)N[C@@H](CC(=O)O)c3ccccc3)ccc21", "system": "mouse HFpEF model (high-fat diet plus L-NAME, 7 weeks)", "conditions": "intraperitoneal, 20 mg/kg/day, 2 weeks", "measurement": "cardiac fibrosis", "result": "decreased"}
{"Compound": "NC[C@@H](C(=O)Nc1ccc(-c2cn[nH]c2)cc1)c1ccccc1", "assay": "tonometry", "system": "NZW rabbit, magnetic bead-induced ocular hypertension", "conditions": "ocular, 0.03%, 26 h", "measurement": "IOP", "result": "32.9 mmHg"}
{"Compound": "COc1ccc(C(=O)CCc2cc(C(CCc3ccc(O)cc3OC)c3ccc(O)cc3)c(O)cc2OC)cc1 (racemic)", "system": "human blood", "conditions": "30 µM, added: A23187", "measurement": "EPA level", "result": "74500 ± 13000 pg/mL"}
{"Compound": "COc1ccccc1-c1ccncc1C(=O)Nc1nnc(OCc2ccc(Cl)cc2)s1", "system": "Brca1 Δ11/Δ11 Polq-/- MEFs, Mus musculus", "conditions": "1.25 µM, average of runs", "scale": "reference: 0 µM", "measurement": "colony survival", "result": "92.5%"}
{"Compound": "COC1CN([C@H]2CC[C@H]([C@@]3(C)Oc4c(Cl)cc(C(=O)NCc5c(SC)cc(C)[nH]c5=O)c(C)c4O3)CC2)C1", "assay": "RNA-seq, refers to: NDRG2", "system": "human, whole blood", "conditions": "dose not given, 24 h", "scale": "reference: pretreatment baseline", "measurement": "log2 fold change", "result": 1.66}
{"Compound": "CCCCCCCCCCCCCCCC(=O)NCCCC[C@H](N)C(=O)N[C@@H](CC(=O)O)C(=O)N[C@H](C(=O)N[C@@H](Cc1c[nH]cn1)C(=O)N[C@@H](Cc1ccccc1)C(=O)N[C@@H](CCCNC(=N)N)C(=O)N[C@H](C(=O)N[C@@H](Cc1ccccc1)C(=O)N[C@@H](CCCNC(=N)N)C(=O)N[C@@H](CO)C(=O)N[C@@H](Cc1c[nH]cn1)C(=O)N[C@@H](CO)C(=O)N[C@@H](CC(=O)O)C(=O)N[C@@H](Cc1ccc(O)cc1)C(=O)N[C@@H](CCCNC(=N)N)C(=O)N[C@@H](CCCNC(=N)N)C(=O)N[C@H](C(=O)O)[C@@H](C)CC)[C@@H](C)O)[C@@H](C)O", "system": "C57BL/6J mice, MCD diet-fed, serum", "conditions": "dose not given, 3 weeks, NASH model", "measurement": "total cholesterol", "result": "57.2 ± 9.9 mg/dL"}
{"Compound": "O=S(=O)(NCc1ccncc1)c1ccc(C2CCCCC2)cc1", "assay": "immunohistochemistry", "system": "CK-p25 mice female, hippocampal granule layer", "conditions": "ip, 0.3 mg/kg daily, 6 wk", "scale": "reference: vehicle", "measurement": "intact GFP+ granule cells", "result": "~1.4 fold"}
{"Compound": "CC(=O)[O-].O.O.[O-]c1ccc(Br)cc1C=NCCN1CCOCC1.[Zn+2]", "assay": "hydroxyl radical scavenging", "conditions": "80 µM", "measurement": "inhibition", "result": "16.1%"}
{"Compound": "CC(CCC(=O)NCc1ccc(C(=O)NO)cc1)C1CCC2C3C(O)CC4CC(O)CCC4(C)C3CCC12C (centres unmarked)", "assay": "refers to: TCA", "system": "PCK rat (Pkhd1 mutant), bile", "conditions": "oral gavage, dose not given, 5 months", "scale": "reference: total bile acids", "measurement": "relative abundance", "result": "54.6%"}
{"Compound": "CC(C)C[C@H](NC(=O)CNC(=O)[C@H](CCC(N)=O)NC(=O)[C@H](CC(C)C)NC(=O)[C@H](CC(C)C)NC(=O)[C@H](CCCNC(=N)N)NC(=O)[C@H](CCC(N)=O)NC(=O)[C@H](CC(C)C)NC(=O)[C@H](CCCNC(=N)N)NC(=O)[C@H](C)NC(=O)CNC(=O)[C@H](CCC(=O)O)NC(=O)[C@H](CCCNC(=N)N)NC(=O)[C@H](CC(C)C)NC(=O)[C@H](CCCNC(=N)N)NC(=O)[C@H](CO)NC(=O)[C@H](CC(C)C)NC(=O)[C@H](CCC(=O)O)NC(=O)[C@H](CO)NC(=O)[C@@H](NC(=O)[C@H](Cc1ccccc1)NC(=O)[C@@H](NC(=O)CNC(=O)[C@H](CC(=O)O)NC(=O)C(C)(C)NC(=O)[C@@H](N)Cc1c[nH]cn1)[C@@H](C)O)[C@@H](C)O)C(=O)N[C@@H](CC(C)C)C(=O)N[C@@H](CCC(N)=O)C(=O)NCC(=O)N[C@@H](CC(C)C)C(=O)N[C@H](C(=O)NCC(=O)N[C@@H](CCCCNC(=O)COCCOCCNC(=O)COCCOCCNC(=O)CC[C@H](NC(=O)CCCCCCCCCCCCCCCCC(=O)O)C(=O)O)C(N)=O)C(C)C", "system": "DIO C57BL/6J mice", "conditions": "dose not given, day 28, added: GLP-1R agonist co-treatment", "measurement": "plasma active ghrelin", "result": "increased"}
{"Compound": "COc1ccc2cc3[n+](cc2c1OCCCOC(=O)c1cscn1)CCc1cc2c(cc1-3)OCO2", "system": "C57BL/6 mice, high-fat diet", "conditions": "oral gavage, 20 mg/kg daily, 14 weeks", "scale": "reference: HFD control", "measurement": "plasma total cholesterol reduction", "result": "35.6%"}
{"Compound": "COc1cccc(OCCN2CCC[C@H](CN3CCc4cc(OC)c(OC)cc4CC3=O)C2)c1", "system": "C57BL/6J mouse, female, stress-naive", "conditions": "intraperitoneal, 5 mg/kg, 14 d post-dose", "scale": "reference: before dosing", "measurement": "time in centre, open field", "result": "no effect"}
{"Compound": "CCCCCc1ccc(S(=O)(=O)N2CC2C(=O)OC)cc1 (centres unmarked)", "system": "mouse, Lewis lung carcinoma", "conditions": "intraperitoneal, 15 mg/kg, 16 doses, day 15", "measurement": "tumour volume", "result": "588 mm3"}
{"Compound": "COc1cc(O)ccc1CCC(c1ccc(O)cc1)c1cc2c(c(C)c1O)OC(c1ccc(O)cc1)CC2 (mixture of isomers)", "system": "human blood", "conditions": "0.3 µM, added: A23187", "measurement": "20-OH-LTB4 level", "result": "457 ± 196 pg/mL"}
{"Compound": "O=C(O)c1cccc(CN2Cc3cccc(n3)CN(Cc3cccc(C(=O)O)n3)Cc3cccc(n3)C2)n1", "system": "HEPES buffer with NaCl", "conditions": "33 °C, 1.4 T", "measurement": "r1 relaxivity", "result": "3.6 mM⁻¹ s⁻¹"}
{"Compound": "Cc1cc(NC(=O)C(=O)N2C[C@@H](C)CC[C@@H]2c2ccc3scnc3c2)cnc1N", "system": "mouse, HCT-116 MTAP wild-type xenograft", "conditions": "dose not given, same dose levels", "measurement": "antitumour activity", "result": "no effect"}
{"Compound": "CC(C)C[C@H](NC(=O)[C@H](Cc1ccccc1)NC(=O)[C@H](C)NC(=O)[C@@H](CS)NC(=O)CNC(=O)[C@H](N)CO)C(=O)N[C@@H](CO)C(=O)N[C@H](C(=O)N[C@@H](CCCCN)C(=O)N[C@@H](CCCCN)C(=O)N[C@@H](CCC(N)=O)C(=O)N[C@@H](Cc1ccccc1)C(=O)N[C@@H](CCC(=O)O)C(=O)N[C@@H](CCC(=O)O)C(=O)N[C@@H](CC(C)C)C(=O)N[C@H](C(=O)N[C@@H](CC(C)C)C(=O)NCC(=O)N[C@@H](CCC(=O)O)C(=O)N[C@@H](Cc1ccccc1)C(=O)N[C@@H](CC(C)C)C(=O)N[C@H](CCCCN)C(=O)N[C@H](CC(C)C)C(=O)N[C@H](CC(=O)O)C(=O)N[C@@H](CCCNC(=N)N)C(=O)N[C@H](CCCNC(=N)N)C(=O)N[C@@H](CCCNC(=N)N)C(=O)N[C@@H](CCCCN)C(=O)O)[C@@H](C)O)C(C)C", "assay": "immunofluorescence", "system": "mouse A549 xenograft, tumour", "conditions": "intratumoral or intravenous, dose not given", "measurement": "α-SMA staining", "result": "decreased"}
{"Compound": "C[C@H](NC(=O)COC(=O)[C@H](C)NC(=O)CO)C(=O)O", "system": "water", "conditions": "pH 2, 25 °C", "measurement": "backbone scission rate constant", "result": "0.0005 h⁻¹"}
{"Compound": "CN1CCC[C@]1(C)/C=C/S(=O)(=O)NC(=O)Nc1c2c(cc3c1CCC3)CCC2", "system": "human, whole blood ex vivo", "conditions": "50 mg single dose, 12 h, single ascending dose, added: LPS and ATP", "measurement": "IL-18 inhibition", "result": "126%"}
{"Compound": "COc1cnc2cccc(N3CCc4c(cc(Cn5ccnc5)cc4-c4cn(C)nc4C(F)(F)F)C3=O)c2c1", "system": "BALB/c nude mice, MV4-11 xenograft", "conditions": "intraperitoneal, 75 mg/kg, day 17", "measurement": "tumour volume", "result": "153 mm3 and 119 mm3 and 140 mm3 and 143 mm3 and 144 mm3"}
{"Compound": "CC(C)[C@H](NC(=O)[C@H](Cc1ccccc1)NC(=O)[C@H](Cc1ccccc1)NC(=O)OCC1c2ccccc2-c2ccccc21)C(=O)N[C@@H](CCC(=O)O)C(=O)N[C@@H](CCC(=O)O)C(N)=O", "assay": "refers to: Cy5.5-labelled peptide", "system": "mouse, lung", "conditions": "intravenous", "measurement": "time to lung targeting", "result": "≤ 5 min"}
{"Compound": "Cc1[nH]nc2c1N=C(c1ccccc1Cl)c1cnc(N3CCOCC3)cc1N2", "system": "mouse sample BC TNBC PDX", "conditions": "oral, 15 mg/kg, 120 h, 5 days per week", "measurement": "tumour growth inhibition", "result": "94%"}
{"Compound": "N=C(N)NCCC[C@@H]1NC(=O)[C@H](CCCNC(=N)N)NC(=O)[C@@H](C(c2ccccc2)c2ccccc2)NC(=O)[C@H](Cc2c[nH]c3ccccc23)NC(=O)[C@@H](C(c2ccccc2)c2ccccc2)NC(=O)[C@@H](CCCNC(=N)N)NC(=O)[C@@H](CCCNC(=N)N)NC1=O", "system": "mammalian membrane liposomes", "conditions": "50 µg/mL, 100 min", "measurement": "calcein leakage", "result": "12 to 18%"}
{"note": "Excerpt of the above:"}
{"Compound": "COc1ccc(C(=O)CCc2cc(C(CCc3ccc(O)cc3OC)c3ccc(O)cc3)c(O)cc2OC)cc1 (racemic)", "system": "human blood", "conditions": "30 µM, added: A23187", "measurement": "EPA level", "result": "74500 ± 13000 pg/mL"}
